Assay results pooled from the literature.
Numbered parts are unrelated; each lists some results of a single study. Values joined by “and” are separate records of one study, mostly repeats; a detail may differ.
Sequence of UniProt P68400 (whole entry, looked up): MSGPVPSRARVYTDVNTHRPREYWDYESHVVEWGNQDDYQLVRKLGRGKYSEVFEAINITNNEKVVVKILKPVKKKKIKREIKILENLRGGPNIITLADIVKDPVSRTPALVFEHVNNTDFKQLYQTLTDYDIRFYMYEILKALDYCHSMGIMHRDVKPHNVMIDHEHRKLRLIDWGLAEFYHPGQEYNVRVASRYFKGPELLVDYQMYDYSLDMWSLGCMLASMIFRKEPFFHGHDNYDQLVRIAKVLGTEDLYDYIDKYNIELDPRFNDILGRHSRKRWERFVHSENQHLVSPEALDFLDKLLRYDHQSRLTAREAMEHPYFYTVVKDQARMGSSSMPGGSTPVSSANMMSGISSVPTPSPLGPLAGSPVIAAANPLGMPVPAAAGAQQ
Sequence of UniProt Q13976 (whole entry, looked up): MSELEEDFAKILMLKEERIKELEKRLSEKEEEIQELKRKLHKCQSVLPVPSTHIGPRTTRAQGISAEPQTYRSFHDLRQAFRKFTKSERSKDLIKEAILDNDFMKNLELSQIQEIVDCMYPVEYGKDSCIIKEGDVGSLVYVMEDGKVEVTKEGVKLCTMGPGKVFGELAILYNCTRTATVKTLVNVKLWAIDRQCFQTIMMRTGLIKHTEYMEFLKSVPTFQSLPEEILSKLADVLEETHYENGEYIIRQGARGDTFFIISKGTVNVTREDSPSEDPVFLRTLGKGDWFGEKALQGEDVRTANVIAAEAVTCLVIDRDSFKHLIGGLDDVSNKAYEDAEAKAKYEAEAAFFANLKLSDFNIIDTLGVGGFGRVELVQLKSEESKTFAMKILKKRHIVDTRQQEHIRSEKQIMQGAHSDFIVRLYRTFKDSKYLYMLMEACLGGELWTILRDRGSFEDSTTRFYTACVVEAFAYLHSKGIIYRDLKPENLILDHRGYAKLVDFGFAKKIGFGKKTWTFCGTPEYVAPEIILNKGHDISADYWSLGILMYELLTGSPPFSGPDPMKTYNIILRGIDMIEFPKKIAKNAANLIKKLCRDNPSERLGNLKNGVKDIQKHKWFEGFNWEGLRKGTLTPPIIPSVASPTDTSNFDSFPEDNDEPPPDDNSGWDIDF
Sequence of UniProt P51957 (whole entry, looked up): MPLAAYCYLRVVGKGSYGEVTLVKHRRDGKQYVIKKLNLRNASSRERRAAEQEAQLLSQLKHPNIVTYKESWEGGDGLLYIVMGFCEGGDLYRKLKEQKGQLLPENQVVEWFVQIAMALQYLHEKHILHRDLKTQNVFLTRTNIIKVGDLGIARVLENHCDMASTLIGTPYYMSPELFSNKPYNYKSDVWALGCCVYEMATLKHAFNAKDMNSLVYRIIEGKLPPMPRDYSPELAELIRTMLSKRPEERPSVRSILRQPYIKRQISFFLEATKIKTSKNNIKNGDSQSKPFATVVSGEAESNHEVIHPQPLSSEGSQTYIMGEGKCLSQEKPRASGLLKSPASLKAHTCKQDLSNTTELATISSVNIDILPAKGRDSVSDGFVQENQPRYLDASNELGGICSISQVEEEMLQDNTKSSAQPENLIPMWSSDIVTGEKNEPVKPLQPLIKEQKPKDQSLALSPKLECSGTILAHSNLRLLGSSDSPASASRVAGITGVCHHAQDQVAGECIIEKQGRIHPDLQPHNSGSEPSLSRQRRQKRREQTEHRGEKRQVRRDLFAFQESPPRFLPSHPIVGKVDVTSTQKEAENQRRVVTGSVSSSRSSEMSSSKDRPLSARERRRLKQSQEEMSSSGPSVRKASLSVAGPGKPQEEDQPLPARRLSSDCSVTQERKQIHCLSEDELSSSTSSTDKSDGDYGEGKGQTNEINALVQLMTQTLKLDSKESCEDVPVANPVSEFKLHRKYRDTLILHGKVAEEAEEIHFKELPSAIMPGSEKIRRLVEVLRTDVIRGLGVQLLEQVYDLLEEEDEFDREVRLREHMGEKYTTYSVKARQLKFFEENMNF
Sequence of UniProt P52564 (whole entry, looked up): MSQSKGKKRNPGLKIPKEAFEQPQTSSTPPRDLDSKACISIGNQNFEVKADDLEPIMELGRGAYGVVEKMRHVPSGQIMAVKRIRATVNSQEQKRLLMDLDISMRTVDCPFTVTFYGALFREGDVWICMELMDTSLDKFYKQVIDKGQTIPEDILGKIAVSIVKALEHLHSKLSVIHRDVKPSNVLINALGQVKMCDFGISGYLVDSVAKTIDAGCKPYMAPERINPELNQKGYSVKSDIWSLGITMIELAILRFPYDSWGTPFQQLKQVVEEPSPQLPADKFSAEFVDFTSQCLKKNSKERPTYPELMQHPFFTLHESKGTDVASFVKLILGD
Sequence of UniProt Q9NYY3 (whole entry, looked up): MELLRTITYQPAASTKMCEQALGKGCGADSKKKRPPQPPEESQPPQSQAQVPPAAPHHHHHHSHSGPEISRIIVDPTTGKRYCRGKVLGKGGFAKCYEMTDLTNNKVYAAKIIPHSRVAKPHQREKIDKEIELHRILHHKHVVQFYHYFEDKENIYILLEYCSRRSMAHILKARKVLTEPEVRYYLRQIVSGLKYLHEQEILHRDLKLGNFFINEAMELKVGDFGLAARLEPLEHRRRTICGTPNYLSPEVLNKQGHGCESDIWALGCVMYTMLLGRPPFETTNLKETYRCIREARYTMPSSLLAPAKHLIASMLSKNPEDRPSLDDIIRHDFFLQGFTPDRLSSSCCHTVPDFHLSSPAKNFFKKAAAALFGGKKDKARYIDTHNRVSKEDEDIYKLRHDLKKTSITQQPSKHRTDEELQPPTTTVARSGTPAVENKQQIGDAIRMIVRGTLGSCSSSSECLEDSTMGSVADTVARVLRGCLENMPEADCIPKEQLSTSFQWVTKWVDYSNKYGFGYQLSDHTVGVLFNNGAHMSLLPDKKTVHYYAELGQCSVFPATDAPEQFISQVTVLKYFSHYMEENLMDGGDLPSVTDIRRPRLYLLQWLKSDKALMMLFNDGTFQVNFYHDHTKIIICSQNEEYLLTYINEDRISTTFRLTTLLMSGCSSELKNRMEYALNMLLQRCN
Sequence of UniProt Q12851 (whole entry, looked up): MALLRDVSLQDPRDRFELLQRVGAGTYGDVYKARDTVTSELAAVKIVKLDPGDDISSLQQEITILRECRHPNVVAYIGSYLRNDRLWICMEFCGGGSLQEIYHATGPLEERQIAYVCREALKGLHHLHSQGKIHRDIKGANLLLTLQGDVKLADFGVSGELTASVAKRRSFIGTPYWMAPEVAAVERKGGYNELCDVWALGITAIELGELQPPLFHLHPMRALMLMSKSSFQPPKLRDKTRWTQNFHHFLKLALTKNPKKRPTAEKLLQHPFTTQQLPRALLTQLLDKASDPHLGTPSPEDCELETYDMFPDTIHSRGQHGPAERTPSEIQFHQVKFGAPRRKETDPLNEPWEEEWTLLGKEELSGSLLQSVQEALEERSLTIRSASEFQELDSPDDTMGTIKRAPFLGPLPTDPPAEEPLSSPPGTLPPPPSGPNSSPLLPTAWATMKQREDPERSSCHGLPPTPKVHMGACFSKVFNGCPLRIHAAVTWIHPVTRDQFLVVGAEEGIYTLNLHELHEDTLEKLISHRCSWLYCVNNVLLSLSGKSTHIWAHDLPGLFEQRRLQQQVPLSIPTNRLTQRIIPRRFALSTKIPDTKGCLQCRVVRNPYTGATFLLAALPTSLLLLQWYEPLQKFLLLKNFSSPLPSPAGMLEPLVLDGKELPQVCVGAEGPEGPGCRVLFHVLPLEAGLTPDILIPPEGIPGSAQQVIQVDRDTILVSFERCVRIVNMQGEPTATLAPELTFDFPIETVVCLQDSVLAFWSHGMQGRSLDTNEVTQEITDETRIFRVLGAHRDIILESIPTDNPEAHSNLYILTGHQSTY
Sequence of UniProt O14757 (whole entry, looked up): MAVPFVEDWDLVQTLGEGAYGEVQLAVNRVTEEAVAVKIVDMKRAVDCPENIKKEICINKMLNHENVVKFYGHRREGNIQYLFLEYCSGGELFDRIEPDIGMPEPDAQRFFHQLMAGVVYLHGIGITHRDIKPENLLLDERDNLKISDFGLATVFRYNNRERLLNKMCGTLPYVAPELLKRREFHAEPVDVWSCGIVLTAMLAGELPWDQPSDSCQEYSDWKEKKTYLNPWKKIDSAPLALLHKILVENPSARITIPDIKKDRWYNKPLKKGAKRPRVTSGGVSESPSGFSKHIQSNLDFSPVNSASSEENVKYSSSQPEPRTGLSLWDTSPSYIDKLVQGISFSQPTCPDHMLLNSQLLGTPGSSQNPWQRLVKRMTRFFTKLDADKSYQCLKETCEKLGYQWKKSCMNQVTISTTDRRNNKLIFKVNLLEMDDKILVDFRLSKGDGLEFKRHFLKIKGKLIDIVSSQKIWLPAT
Sequence of UniProt Q9NWZ3 (whole entry, looked up): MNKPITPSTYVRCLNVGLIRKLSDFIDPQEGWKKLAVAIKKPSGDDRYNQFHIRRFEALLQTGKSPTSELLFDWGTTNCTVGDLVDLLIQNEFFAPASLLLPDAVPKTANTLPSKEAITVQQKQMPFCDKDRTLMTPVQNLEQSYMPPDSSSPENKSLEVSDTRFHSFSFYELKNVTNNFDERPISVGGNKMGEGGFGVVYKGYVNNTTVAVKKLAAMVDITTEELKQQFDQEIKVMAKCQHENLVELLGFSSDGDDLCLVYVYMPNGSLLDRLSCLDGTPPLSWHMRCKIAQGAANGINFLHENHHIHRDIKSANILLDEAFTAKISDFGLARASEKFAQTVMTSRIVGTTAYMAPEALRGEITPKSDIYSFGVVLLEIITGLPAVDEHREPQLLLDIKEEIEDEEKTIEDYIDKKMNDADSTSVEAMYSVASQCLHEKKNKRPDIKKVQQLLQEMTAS
Sequence of UniProt P48729 (whole entry, looked up): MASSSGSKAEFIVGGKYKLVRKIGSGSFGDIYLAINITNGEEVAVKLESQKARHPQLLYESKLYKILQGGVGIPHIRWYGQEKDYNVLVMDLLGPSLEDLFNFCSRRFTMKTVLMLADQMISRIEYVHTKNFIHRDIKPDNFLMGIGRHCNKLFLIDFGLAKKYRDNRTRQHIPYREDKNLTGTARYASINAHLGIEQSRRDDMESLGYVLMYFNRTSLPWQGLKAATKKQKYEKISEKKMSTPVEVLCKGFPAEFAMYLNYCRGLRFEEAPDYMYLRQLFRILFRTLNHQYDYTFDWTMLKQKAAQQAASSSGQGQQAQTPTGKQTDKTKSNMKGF

Sample 1
Cell line: mouse MPNST tumor cells
Technique: high-content nuclear imaging
Measured: cell number
Concentration: 10 µM
Time: 12 h
Setting: mean of 2 replicates
Relative to: plate mean
Reading: higher = more cells
`O=C(c1ccc(F)cc1)C1CCN(CCn2c(=S)[nH]c3ccccc3c2=O)CC1` has a nuclei count of 1.56 z-score.
`COc1ccc(S(=O)(=O)N2CCC[C@H]2C(=O)Nc2cc(C)cc(C)c2)cc1` has a nuclei count of 1.11 z-score.
For `COc1cc2nc(N3CCN(C(=O)C4CCCO4)CC3)nc(N)c2cc1OC` (stereo not drawn), the nuclei count was 0.922 z-score and 2.08 z-score.
With `O=C(C1CCCCC1)N1CC(=O)N2CCc3ccccc3C2C1` (stereo not drawn) the nuclei count was 1.93 z-score and 0.753 z-score.
`NS(=O)(=O)c1ccc2c(c1)C1C=CCC1C(c1ccc(Br)cc1)N2` (stereo not drawn) has a nuclei count of 1.92 z-score.
The nuclei count of `COc1cc(NS(=O)(=O)c2ccc(N)cc2)ncn1` is reported as 1.73 z-score.
`CC(=O)NCCNc1cc(Cl)nn2c(-c3cccc(S(=O)(=O)N(C)C)c3)c(C)nc12` gave a nuclei count of 0.237 z-score.
`C=CCN1CCc2nc(N)sc2CC1` has a nuclei count of 0.479 z-score.
The nuclei count of `CCCCn1c(-c2ccccc2)nc(-c2ccccc2)c1CN(Cc1ccc2c(c1)OCO2)Cc1ccc2c(c1)OCO2` is reported as 3.03 z-score.

Sample 2
Structure (SMILES): CC(C)n1cnc(-c2ccc(F)cc2)c1-c1ncc(C(=O)Nc2ccc(N3CCN(C)CC3)cc2)[nH]1
Technique: phase 2a trial
Species: idiopathic pulmonary fibrosis patients
measured: infection; dose not given, grade 3, all arms pooled — “adverse event incidence”: 0%.
measured: allergic conjunctivitis; 30 mg once daily, grade 1 — “adverse event incidence”: 0%.
It gave 0% for “adverse event incidence” (measured: general and administration site disorders; 30 mg once daily, grade 5).
The “adverse event incidence” was 0% (measured: liver injury; dose not given, grade 4, all arms pooled).
It gave 0% for “adverse event incidence” (measured: appendicitis; dose not given, grade 1, all arms pooled).
It gave 0% for “adverse event incidence” (measured: appendicitis; 60 mg once daily, grade 1).
measured: arthritis; 30 mg once daily, grade 3 — “adverse event incidence”: 0%.
measured: ECG ST segment abnormal; 30 mg once daily, grade 2 — “adverse event incidence”: 0%.
For measured: ECG ST segment abnormal; dose not given, grade 5, all arms pooled: “adverse event incidence” read 0%.
measured: infection; 30 mg once daily, grade 2 — “adverse event incidence”: 0%.
The “adverse event incidence” was 0% (measured: hydroxybutyrate dehydrogenase increased; dose not given, grade 3, all arms pooled).

Sample 3
SMILES: CCOc1cc2ncnc(Nc3cccc(Br)c3)c2cc1OCC
Read-out: enzyme activity
Mode: inhibitor
Concentration: 0.5 µM
Relative to: control
For MAPK12 (Homo sapiens, UniProt P53778): remaining activity read 105%.
For AKT3 (Homo sapiens, UniProt Q9Y243): remaining activity read 104%.
It gave 74.4% for remaining activity (KIT (Homo sapiens, UniProt P10721)).
For MAP3K10 (Homo sapiens, UniProt Q02779): remaining activity read 93.2%.
The remaining activity was 100% (PRKCI (Homo sapiens, UniProt P41743)).
The remaining activity was 92.6% (MAP2K6 (Homo sapiens, UniProt P52564)).
CHEK1 (Homo sapiens, UniProt O14757) — remaining activity: 115%.
The remaining activity was 95.9% (CSNK2A1 (Homo sapiens, UniProt P68400)).
It gave 98.5% for remaining activity (Cyclin-dependent kinase 9, with cyclin T1 (CDK9, Homo sapiens, UniProt P50750)).
It gave 32.1% for remaining activity (LYN (Homo sapiens, UniProt P07948)).
LRRK2 (Homo sapiens, UniProt Q5S007) — remaining activity: 78.7%.
The remaining activity was 72.7% (BTK (Homo sapiens, UniProt Q06187)).
The remaining activity was 91.5% (MAP4K2 (Homo sapiens, UniProt Q12851)).
The remaining activity was 102% (IRAK4 (Homo sapiens, UniProt Q9NWZ3)).
The remaining activity was 98.6% (CSNK1A1 (Homo sapiens, UniProt P48729)).
It gave 96.7% for remaining activity (MAPK13 (Homo sapiens, UniProt O15264)).
For PLK2 (Homo sapiens, UniProt Q9NYY3): remaining activity read 99.8%.
For MKNK2 (Homo sapiens, UniProt Q9HBH9): remaining activity read 34.3%.
For PRKG1 (Homo sapiens, UniProt Q13976): remaining activity read 96.7%.
It gave 100% for remaining activity (PRKCD (Homo sapiens, UniProt Q05655)).
The remaining activity was 69.5% (EPHA5 (Homo sapiens, UniProt P54756)).
It gave 84.8% for remaining activity (NEK4 (Homo sapiens, UniProt P51957)).

Sample 4
Cell line: normal organoid sample D
Technique: CellTiter-Glo
Species: human
Medium: normal-adjacent epithelium
Concentration: 1 µM
Relative to: DMSO
With `Cc1nc(N2CC[C@@H](O)C2)ncc1-c1cc(C(F)(F)F)cc2[nH]ncc12` the viability was 100% and 78.2%.
`Cc1c(Oc2ccc(F)cc2)c(OC(C)C)nn1-c1ccc(C2CC2)cn1` gave a viability of 110% and 87.4%.
For `O=C(O)c1cc(-c2ccc(C3CCNCC3)cc2)c2ccc(-c3ccc(C(F)(F)F)cc3)cc2c1`, the viability was 134% and 105%.
`CCNC(=O)c1cc2c(N3CCOC[C@@H]3C)ccnc2[nH]1` gave a viability of 119% and 103%.
`O=C(N1CCS(=O)(=O)CC1)N1C[C@H](c2ccc(OC(F)(F)F)cc2)C[C@H](c2nc(C3CC3)no2)C1` gave a viability of 154% and 115%.
The viability of `CO[C@@H](C)c1c(Nc2ccc([C@H](N(C)C(=O)C3CCS(=O)(=O)CC3)C(F)(F)F)cc2)cnc2cc(Cl)nn12` is reported as 80.1% and 87.4%.
`c1ccc(N2CCN(Cc3nc4ccccc4[nH]3)CC2)nc1` has a viability of 101% and 105%.
`CC(=O)C1=C(C)N(c2cccc(C(F)(F)F)c2)C(=O)N[C@@H]1c1ccc(C#N)nc1` gave a viability of 112%.
For `Cc1cnc(-c2cc(Cl)ccc2F)cc1-n1c(=O)n(CC(N)=O)c2cnccc21`, the viability was 107% and 130%.
`O=C1NC(c2ccccn2)Sc2ccccc21` (stereo not drawn) has a viability of 101% and 110%.
For `CN([C@@H]1CCc2c(CC(=O)O)c3ccccc3n2C1)S(=O)(=O)c1ccc(F)cc1`, the viability was 113% and 102%.
With `CC1=C(C#N)C(c2ccc3[nH]nc(C)c3c2)C(C#N)=C(C)N1` the viability was 116% and 100%.

Excerpt of the above (sample 3):
The remaining activity was 92.6% (MAP2K6 (Homo sapiens, UniProt P52564)).
It gave 32.1% for remaining activity (LYN (Homo sapiens, UniProt P07948)).
It gave 96.7% for remaining activity (MAPK13 (Homo sapiens, UniProt O15264)).
For PLK2 (Homo sapiens, UniProt Q9NYY3): remaining activity read 99.8%.
For MAP3K10 (Homo sapiens, UniProt Q02779): remaining activity read 93.2%.
It gave 100% for remaining activity (PRKCD (Homo sapiens, UniProt Q05655)).
It gave 74.4% for remaining activity (KIT (Homo sapiens, UniProt P10721)).
The remaining activity was 95.9% (CSNK2A1 (Homo sapiens, UniProt P68400)).
For PRKG1 (Homo sapiens, UniProt Q13976): remaining activity read 96.7%.
